Results from different studies.
± gives the spread as reported.

Compound	test	system	setting	scale	endpoint	result
C=C1CC[C@H](OCCCNC(=O)CCOCCOCCOCCOCCOCCOCCOCCOCCOCCOCCOCCOCCOCCOCCOCCOCCOCCOCCOCCOCCOCCOCCOCCOCCOCCOCCOCCOCCOCCOCCOCCOCCOCCOCCOCCOCCNC(=O)CCN2C(=O)CC(SC[C@H](NC(=O)[C@H](Cc3ccccc3)NC(=O)[C@H](CC(N)=O)NC(=O)[C@H](Cc3c[nH]cn3)NC(=O)[C@@H](NC(=O)[C@H](CC(=O)O)NC(=O)[C@H](CCC(N)=O)NC(=O)[C@H](CC(C)C)NC(=O)[C@H](CCCCN)NC(=O)[C@H](CCCCN)NC(=O)[C@H](CCCNC(=N)N)NC(=O)[C@H](CC(C)C)NC(=O)[C@H](Cc3c[nH]c4ccccc34)NC(=O)[C@H](CCC(=O)O)NC(=O)[C@@H](NC(=O)[C@H](CCCNC(=N)N)NC(=O)[C@H](CCC(=O)O)NC(=O)[C@H](CCSC)NC(=O)[C@H](CO)NC(=O)[C@H](CC(N)=O)NC(=O)[C@H](CC(C)C)NC(=O)[C@H](Cc3c[nH]cn3)NC(=O)[C@H](CCCCN)NC(=O)CNC(=O)[C@H](CC(C)C)NC(=O)[C@H](CC(N)=O)NC(=O)[C@H](Cc3c[nH]cn3)NC(=O)[C@H](CCSC)NC(=O)[C@H](CC(C)C)NC(=O)[C@H](CCC(N)=O)NC(=O)[C@@H](NC(=O)[C@H](CCC(=O)O)NC(=O)[C@H](CO)NC(=O)[C@@H](NC(=O)[C@@H](N)CO)C(C)C)[C@@H](C)CC)C(C)C)C(C)C)C(N)=O)C2=O)C/C1=C/C=C1\CCC[C@]2(C)[C@@H]([C@H](C)CCCC(C)(C)O)CC[C@@H]12 (stereo partly drawn)	–	Sprague Dawley rat	subcutaneous, 14.2 µg/kg daily, 21 days	reference: 1 µg/kg dose	dose-normalized Cmax	2.48
N=C(N)NCCC[C@@H]1NC(=O)[C@H](CCCCNC(=O)CCC(C(=O)O)N2CCCN3CCN(CCCN(CC(=O)O)CC3)CC2)NC(=O)[C@@H](Cc2ccc(O)cc2)NC(=O)[C@H](CC(=O)O)NC(=O)CNC1=O (stereo partly drawn) [copper-64 labelled]	–	SCID mouse, PC-3 xenograft, tumour	iv, dose not given, 4 h	–	tumour uptake	1.85 ± 0.26 %ID/g
N=C(N)NCCC[C@@H]1NC(=O)[C@H](CCCCNC(=O)CNC(=O)CNC(=O)CNC(=O)CC[C@H](NC(=O)CNC(=O)CNC(=O)CNC(=O)CC[C@H](NC(=O)CN2CCN(CC(=O)O)CCN(CC(=O)O)CCN(CC(=O)O)CC2)C(=O)NCC(=O)NCC(=O)NCC(=O)N[C@@H](CCC(=O)NCC(=O)NCC(=O)NCC(=O)NCCCC[C@@H]2NC(=O)[C@@H](Cc3ccccc3)NC(=O)[C@H](CC(=O)O)NC(=O)CNC(=O)[C@H](CCCNC(=N)N)NC2=O)C(=O)NCC(=O)NCC(=O)NCC(=O)NCCCC[C@@H]2NC(=O)[C@@H](Cc3ccccc3)NC(=O)[C@H](CC(=O)O)NC(=O)CNC(=O)[C@H](CCCNC(=N)N)NC2=O)C(=O)NCC(=O)NCC(=O)NCC(=O)NCCCC[C@@H]2NC(=O)[C@@H](Cc3ccccc3)NC(=O)[C@H](CC(=O)O)NC(=O)CNC(=O)[C@H](CCCNC(=N)N)NC2=O)NC(=O)[C@@H](Cc2ccccc2)NC(=O)[C@H](CC(=O)O)NC(=O)CNC1=O [indium-111 labelled]	–	female athymic nu/nu mice, lungs	intravenous, 4 h	–	tissue uptake	2.72 ± 0.38 %ID/g
CCCC[C@H](NC(=O)CNC(=O)CNC(=O)CN1CCN(CC(=O)O)CCN(CC(=O)O)CCN(CC(=O)O)CC1)C(=O)N[C@H]1CC(=O)NCCCC[C@@H](C(N)=O)NC(=O)[C@H](Cc2c[nH]c3ccccc23)NC(=O)[C@H](CCCNC(=N)N)NC(=O)[C@@H](Cc2ccccc2)NC(=O)[C@H](Cc2c[nH]cn2)NC1=O [lutetium-177 labelled]	–	C57 mouse, female, whole blood	intravenous, 0.037 MBq, 2 h	–	tissue uptake	0.22 ± 0.14 %ID/g
CN1C(=O)[C@@H](Cc2ccc(O)cc2)NC(=O)CNC(=O)[C@H](Cc2ccc3ccccc3c2)NC(=O)[C@H](CCCNC(=N)N)NC(=O)[C@H]1CCCNC(=O)c1ccc(CNC(=O)CN2CCN(CC(=O)O)CCN(CC(=O)O)CCN(CC(=O)O)CC2)cc1 [gallium-68 labelled]	–	adult reference man, from C57BL/6 mice data	150 MBq	–	effective dose	1.65 ± 0.06 mSv
CCn1cc(C(=O)NCCCCCC(=O)N[C@@H](CCCNC(=N)N)C(=O)N[C@@H](CCCNC(=N)N)C(=O)N[C@@H](Cc2c[nH]c3ccccc23)C(=O)N[C@@H](CCC(N)=O)C(=O)N[C@@H](Cc2c[nH]c3ccccc23)C(=O)N[C@@H](CCCNC(=N)N)C(N)=O)c(=O)c2cc3c(cc21)OCO3	RP-HPLC, C18 column	–	–	higher is more hydrophobic	retention time	5.8 min
O=C(O)CC[C@H](NC(=O)N[C@@H](CCCCNC(=O)CCCCC[C@H](NC(=O)CCS[C@@H]1O[C@H](CO)[C@H](O)[C@H](O)[C@H]1O)C(=O)NCCCC[C@@H](NC(=O)[C@@H](Cc1ccccc1)NC(=O)[C@@H](Cc1ccc(O)c(I)c1)NC(=O)CCC(C(=O)O)N1CCN(CC(=O)O)CCN(CC(=O)O)CCN(CC(=O)O)CC1)C(=O)O)C(=O)O)C(=O)O (stereo partly drawn) [lutetium-177 labelled]	shake flask n-octanol/PBS	–	pH 7.4, radiolabelled compound	–	logP	-3.95 ± 0.12
CCn1cc(C(=O)NCCCCCC(=O)N[C@@H](CCCNC(=N)N)C(=O)N[C@@H](CC(C)C)C(=O)N[C@@H](CC(C)C)C(=O)N[C@@H](CCCNC(=N)N)C(N)=O)c(=O)c2cc3c(cc21)OCO3	RP-HPLC, C18 column	–	–	higher is more hydrophobic	retention time	6 min
CCCC[C@H](NC(=O)CCCCCCCNC(=O)CN1CCN(CC(=O)O)CCN(CC(=O)O)CC1)C(=O)N[C@H]1CC(=O)NCCCC[C@@H](C(N)=O)NC(=O)[C@H](Cc2c[nH]c3ccccc23)NC(=O)[C@H](CCCNC(=N)N)NC(=O)[C@@H](Cc2ccccc2)NC(=O)[C@H](Cc2c[nH]cn2)NC1=O [copper-64 labelled]	–	C57 mice, skin	intravenous, 0.37 MBq, 2 h	–	tissue uptake	0.39 ± 0.05 %ID/g

For quick reference, copied from above:
Compound	test	system	setting	scale	endpoint	result
CCCC[C@H](NC(=O)CNC(=O)CNC(=O)CN1CCN(CC(=O)O)CCN(CC(=O)O)CCN(CC(=O)O)CC1)C(=O)N[C@H]1CC(=O)NCCCC[C@@H](C(N)=O)NC(=O)[C@H](Cc2c[nH]c3ccccc23)NC(=O)[C@H](CCCNC(=N)N)NC(=O)[C@@H](Cc2ccccc2)NC(=O)[C@H](Cc2c[nH]cn2)NC1=O [lutetium-177 labelled]	–	C57 mouse, female, whole blood	intravenous, 0.037 MBq, 2 h	–	tissue uptake	0.22 ± 0.14 %ID/g
